Assay results pooled from the literature.
Parts stem from different laboratories: compare values within a part only. Substitutions count along the parent as printed.

Study 1 — method: protein-binding microarray; form: double-stranded DNA, one strand shown; medium: in vitro; tested at: 2540 nM top; notes: 60-bp whole probe; with: salmon DNA 0.4 mg/ml; relative to: random background probes; reading: higher = stronger binding
Target: Interferon regulatory factor 3, full length, phosphomimetic (IRF3, Homo sapiens, UniProt Q14653, residues 1-427, S386D/S396D/S398D/S402D/T404D/S405D)
All sequences stand within: GCCTAGCAC … GTGCTAGGTCTTGATTCGCTTGACGCTGCTG
Residues (chain): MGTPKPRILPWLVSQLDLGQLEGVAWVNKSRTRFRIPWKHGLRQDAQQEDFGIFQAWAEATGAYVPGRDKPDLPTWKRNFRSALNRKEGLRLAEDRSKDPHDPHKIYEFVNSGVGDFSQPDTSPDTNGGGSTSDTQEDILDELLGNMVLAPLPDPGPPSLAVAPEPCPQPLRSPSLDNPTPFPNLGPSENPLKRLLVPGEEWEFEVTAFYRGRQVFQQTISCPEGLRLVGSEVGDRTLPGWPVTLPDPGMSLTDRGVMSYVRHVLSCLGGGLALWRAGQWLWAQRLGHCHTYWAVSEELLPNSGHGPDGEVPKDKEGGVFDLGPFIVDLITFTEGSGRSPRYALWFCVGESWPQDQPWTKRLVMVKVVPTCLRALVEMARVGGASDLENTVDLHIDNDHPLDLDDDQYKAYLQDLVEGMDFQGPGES
Strand | fitted relative affinity
TTAGGTTTCGATTCCGGTTA | 8.5 z-score
GACGGTACCCTTATCCTGAC | 1.93 z-score
TTAGATTTCATTTTCGATTA | 4.34 z-score
TTAGGTTTCGGTTTCGGTCA | 11.8 z-score
TTAAGTATCCTACTGCTTTA | 3.07 z-score

Study 2 — target: CCND3, cyclin fold, Cln2 fusion (human); method: yeast growth competition, sequencing; medium: yeast; notes: weak parent motif; relative to: not given; reading: higher = stronger binding
Parent: E2F1 docking peptide (human); PPVKRRLDLETDH; partner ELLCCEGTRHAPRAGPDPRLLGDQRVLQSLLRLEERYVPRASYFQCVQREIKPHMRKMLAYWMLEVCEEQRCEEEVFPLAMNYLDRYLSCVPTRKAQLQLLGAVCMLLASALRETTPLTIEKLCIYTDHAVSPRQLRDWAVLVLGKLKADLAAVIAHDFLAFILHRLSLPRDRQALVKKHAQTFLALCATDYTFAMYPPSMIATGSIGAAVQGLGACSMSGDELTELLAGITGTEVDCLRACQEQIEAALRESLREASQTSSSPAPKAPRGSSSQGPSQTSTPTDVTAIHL
Substitution | normalised enrichment score
R5P | -0.0288
E10N | 0.189
P2V | 0.0886
P1F | 0.235
V3K | 0.179
K4C | 0.141
K4I | 0.0905
R5E | 0.177

Study 3 — method: protein binding microarray; form: double-stranded DNA, one strand shown; medium: in vitro; tested at: not given; relative to: not given; reading: higher = stronger binding
Target: Histone acetyltransferase KAT6A, winged helix 1, GST fusion (KAT6A, Homo sapiens, UniProt Q92794, residues 1-85)
Notes: 8-mer, flanks averaged, mean of 2 arrays, mostly near background
Residues (chain): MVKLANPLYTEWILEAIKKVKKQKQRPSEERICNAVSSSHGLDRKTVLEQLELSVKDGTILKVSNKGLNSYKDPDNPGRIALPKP
Strand | E-score
GTAAGTAC | 0.201
ACTCTCAA | -0.224
ACTTACGC | 0.113
AGTACAAT | 0.0186
TCTATGCA | -0.235
GTCGCTTA | 0.121

Other studies, line by line
Substance | target | test | system | conditions | how to read | measurement | value
PhoQ, residues 284 288 289 292 302 303 SLKLQV | PhoP, residues 12 14 15 18 19 LWHCS (Escherichia coli, UniProt P23836) | Sort-seq, measured: YFP reporter | E. coli | PhoQ-PhoP variant library, with: 10 µM Mg2+ | relative to: high Mg2+ state, higher = stronger signaling | fold induction | 10.4
